Published values gathered from unrelated publications.
Each numbered part is a random draw from the data of one study; scales do not carry over between parts. Positions count from the first letter of the parent shown.

Sample 1
Target: CCNA2, cyclin fold, Cln2 fusion (human)
Method: yeast growth competition, sequencing
Sample: yeast
Setting: strong parent motif
Reference: not given
Reading: higher = stronger binding
Quantity: normalised enrichment score
Parent: MICAL3 docking peptide (human); LQLRRQLSFSEDS
S8T: 3.61
R5D: 0.0253
F9Q: 0.112
Q6C: 3.64
L7H: 0.301
R5Q: 0.127
R5L: 0.234
E11I: 2.01
Q6N: 0.76
D12P: 3.6
L3A: 5.77
F9W: 1.57
S8E: 2.69
E11S: 3.45
S8G: 1.02
F9P: 0.257
S10T: 3.15
S10G: 3.76
E11M: 2.7
R4P: 1.31
R4W: 1.14
R4F: 0.829
R5E: -0.0466
S10D: 2.9
L7D: -0.449

Sample 2
Target: ABI1, truncated, D143A, DHFR fusion (Arabidopsis thaliana)
Method: DHFR PCA, deep sequencing
Sample: yeast
Setting: methotrexate growth selection, single substitutions
Added: (+)-ABA 0 µM
Reference: wild-type fitted maximum
Reading: higher = stronger binding
Quantity: relative binding score
Parent: PYL1, truncated, DHFR fusion (Arabidopsis thaliana); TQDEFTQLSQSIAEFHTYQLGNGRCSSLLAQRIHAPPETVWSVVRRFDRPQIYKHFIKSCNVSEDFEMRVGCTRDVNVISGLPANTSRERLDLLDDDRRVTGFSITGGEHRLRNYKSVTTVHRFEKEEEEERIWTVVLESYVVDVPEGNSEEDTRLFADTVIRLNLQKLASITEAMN
G21K: 24.2%
V76R: -1.35%
A30D: 3.9%
V161H: 37.5%
S171Q: 48%
A158R: 1.02%
Y141W: -6.2%
P50G: 0.972%
N22C: 9.48%
T106L: 49.5%
R32V: 48.3%
V142E: 3.56%
E125G: 30.5%
L94D: -3.78%

Sample 3
Target: RNA binding protein fox-1 homolog 2, RRM domain, GST-SBP tag (RBFOX2, Homo sapiens, UniProt O43251-10, residues 100-194)
Method: RNA Bind-n-Seq
Form: RNA
Sample: in vitro
Concentration: 365 nM
Setting: natural RNA segment, single round, ends assumed
Reference: no-protein control
Reading: higher = stronger binding
Quantity: RBNS enrichment (R)
Residues (chain): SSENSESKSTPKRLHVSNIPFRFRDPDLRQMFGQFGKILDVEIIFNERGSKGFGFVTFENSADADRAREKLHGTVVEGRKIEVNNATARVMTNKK
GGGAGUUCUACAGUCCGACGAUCUGUGCUCCCACGGUUCCCAGGGGCCAGGCUGGGAGCCCACAGCCACCCCACUAUGCCGCAGGCCGCCCUACCCACCUUCAGGCAGCCUAUGGGACGCAGGGCCCCAUCUGUGGAAUUCUCGGGUGCCAA: 0.454
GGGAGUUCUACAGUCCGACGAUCAAUUCCAUCAAAUACUUGCUGUGUAAAUGUUUCUGGACUUUAUGUUAUUUAAUUUACUGACUGAAAUCCAAUUUGGAAUUUGGUAGCAGUUAAUUCAAGCCAAUUUUUUUUGGAAUUCUCGGGUGCCAA: 0.514
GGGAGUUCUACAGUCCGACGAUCCAGACACAAAGGCCCCUCGGCUGGGGGGCAGUGGGCAUGGAGCUGGCCUGCUAACAGCCCCCCGAUCCGUCAGGGGGAAUAACUCUGGGAGUCACUGGAUAUCAGUGGAGUGGAAUUCUCGGGUGCCAA: 0.493
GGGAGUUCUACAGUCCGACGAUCUACCGAACAGCUGAUUCAUAUGCCAAGAAUUUGGAGUCUUCUUUCAAACCAGUGGGGGUUGGACAAUGAAUGUAGUUAACUGGUUCCUGCUCACACUCCAGAAUUAAAUUUGGAAUUCUCGGGUGCCAA: 0.65
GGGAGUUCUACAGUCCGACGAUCCUUUAUAUUUAUAUAGAACAUUGAGGUUGUGUCAAUAAAAACAGUGUUUUGUUUAAAAAAGAGCAGUACCACAUUGUCUGGUCUCAAGUCUGUGCCUGCGAUGGCUGAGUUGGAAUUCUCGGGUGCCAA: 0.334
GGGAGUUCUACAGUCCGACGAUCUUUCAGAGGCCUUUUUUUGUUUGUUUUAAUUUUUGCUAGAUUGAUAUUAAAAACUCAUGUGGAGGAACUCAAGGAAUGUUUAGAAGACCAAAAGUCCCCAAUGACAGGAAUGGAAUUCUCGGGUGCCAA: 1.99
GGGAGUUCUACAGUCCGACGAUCGUAUUUAUAGUAACGUAAGCUAUUAAUGCUAACUCUUGCAUGUCAAGAAACAUUAGUCUUAGGAAUUCUUCAAAAAAUGGCAUCCCAAUGAAAAUAAAUUUGAUGACUAUUGGAAUUCUCGGGUGCCAA: 0.382
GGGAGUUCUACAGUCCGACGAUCAGUUGUUCAUGGAAUUGAUGGGGGAGGUAGAGGGGGUCCUCUAACAAAUAUGUCUGGUGGUGAAUGUGAAAGCUUUCCAUGAGAUGCCAAAGACCCUACAUCGAAUUUCCUGGAAUUCUCGGGUGCCAA: 0.334
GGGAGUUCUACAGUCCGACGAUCGCUUUUUUUAAAUUGCUUUAUCUGUAUAUCUGAACUCUUGAAACUUAUAGCUAAAACACUAGGAUUUAUCUGCAGUGUUCAGGGAGAUAAUUCUGCCUUUAAUUGUCUAAUGGAAUUCUCGGGUGCCAA: 0.499
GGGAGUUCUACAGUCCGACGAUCGUUCUGUAAACAGAUGCAGCCUCCUGGAGAAUGAGGCCCCAGGUUCAAACCAGAAGACAUUUGUGGAUAAAUCUGAACUCACUUCCUGUGUGUAACUUCUAACUUCACUGUGGAAUUCUCGGGUGCCAA: 0.421
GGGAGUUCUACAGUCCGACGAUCCAAUUUAGUAUAAUAUGCAGUUCCUGUGCCUCCAGACUAUGCAGCUCAUCACCCUAGGUUCUACAGGAAAUACAGAGAUGAACAACUUUGCCUUCAAAAAUGUGCUGCCUUGGAAUUCUCGGGUGCCAA: 0.419
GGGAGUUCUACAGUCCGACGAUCCAUUCUUCAUCUAUUUUAGUUAGCACUUUGUAUCGUUAUAUACAGUUUACAAUACAUGUAUAACUUGUAGCUAUAAACAUUUUGUGCCAUUAAAGCUCUCACAAAACUUUUGGAAUUCUCGGGUGCCAA: 0.286

Sample 4
Target: CREB3L2, bZIP domain (human)
Method: DHFR protein complementation
Sample: yeast
Setting: single substitutions, most at no-binding floor
Reference: wild-type JUN-FOS pair
Reading: higher = stronger binding
Quantity: binding fitness
Parent: JUN, bZIP domain (human); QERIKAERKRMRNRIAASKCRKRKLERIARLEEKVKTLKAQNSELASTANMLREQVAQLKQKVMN; partner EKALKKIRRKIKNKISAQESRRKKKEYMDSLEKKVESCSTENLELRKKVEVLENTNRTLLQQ
L52M: -1.52 natural log
R30P: -1.49 natural log
Q41R: -1.34 natural log
N42G: -1.47 natural log
Q41V: -1.38 natural log
L31M: -1.22 natural log
K34F: -1.43 natural log
V35T: -1.47 natural log
S47N: -1.5 natural log
L31E: -1.51 natural log
A46I: -1.32 natural log
V35W: -1.47 natural log
Q55Y: -1.51 natural log

Sample 5
Target: Myc proto-oncogene protein, bHLH-zipper, MAX partner unstated (MYC, Homo sapiens, UniProt P01106, residues 368-449)
UniProt P01106, sequence (368-449, looked up): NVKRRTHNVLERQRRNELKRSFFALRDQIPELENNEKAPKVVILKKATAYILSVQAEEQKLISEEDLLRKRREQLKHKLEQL
Method: protein-binding microarray
Form: double-stranded DNA, one strand shown
Sample: in vitro
Concentration: not given
Setting: k-mer, scored over probes, only values ≥0.25
Reading: higher = stronger binding
Quantity: E-score
CCACGCGC: 0.451
AACATCGT: 0.298
CATCGTGG: 0.407
CATGAGCC: 0.278
AGCACACC: 0.336
AGAACACG: 0.387
GCCTCCCC: 0.364
ACGCGTTC: 0.305
ACATGGTA: 0.384
GGTAGCAC: 0.306
CCATGTGC: 0.487
GAGCCCAC: 0.257
ACACGCCT: 0.346
CATGTTAG: 0.256
CACGCAAC: 0.294
TGTGCACA: 0.276
CACGAGGA: 0.458
CGTGTGAC: 0.286
GCGCGGTA: 0.294
AATGTGGT: 0.264
AACCACGC: 0.429
GCGTGACC: 0.378
CGTGACAA: 0.324
ACCTCGCA: 0.27
ACATGGGG: 0.404

Excerpt of the above (sample 2):
G21K: 24.2%
V76R: -1.35%
A30D: 3.9%
V161H: 37.5%
S171Q: 48%
A158R: 1.02%
Y141W: -6.2%
P50G: 0.972%
N22C: 9.48%
T106L: 49.5%
R32V: 48.3%
